Results gathered from unrelated publications.
Numbered parts are unrelated; each lists some results of a single study. Positions count from the first letter of the parent shown.

Block 1
Target: Prothrombin, mature alpha-thrombin (F2, Homo sapiens, UniProt P00734)
Method: aptamer microarray, sandwich
Molecule type: DNA with 2'F-ANA
Medium: in vitro
Tested at: 200 nM
Notes: whole 15-mer aptamer, many near background
Added: Cy3 exosite-II aptamer, 400 nM
Direction: higher = stronger binding
Oligonucleotide: GGTTGGTGTGGTTGG
Under “mean fluorescence intensity”, `2'F-ANA at 2 6 7 11 13` is recorded as 273 a.u.
`2'F-ANA at 1 4 8 9 10 12 14 15`: “mean fluorescence intensity” 65 a.u.
`2'F-ANA at 2 6 8 11 12 13 14`: “mean fluorescence intensity” 149 a.u.
`2'F-ANA at 1 2 6 7 10 12 14 15`: “mean fluorescence intensity” 52.8 a.u.
`2'F-ANA at 1 2 4 6 8 10 15`: “mean fluorescence intensity” 50.3 a.u.
For `2'F-ANA at 1 4 14`, “mean fluorescence intensity” read 49.1 a.u.
Under “mean fluorescence intensity”, `2'F-ANA at 1 2 6 7 11 13 15` is recorded as 98 a.u.
`2'F-ANA at 1 4 7 10 12` — result for “mean fluorescence intensity”: 57.6 a.u.
Under “mean fluorescence intensity”, `2'F-ANA at 2 6 7 8 9 13` is recorded as 280 a.u.
For `2'F-ANA at 2 3 7 8 10 11 14 15`, “mean fluorescence intensity” read 250 a.u.
`2'F-ANA at 1 2 3 5 6 8 10 13 15` — result for “mean fluorescence intensity”: 54.4 a.u.
Under “mean fluorescence intensity”, `2'F-ANA at 4 5 6 10` is recorded as 57.9 a.u.
Under “mean fluorescence intensity”, `2'F-ANA at 2 3 10 12 13 14` is recorded as 276 a.u.
`2'F-ANA at 2 3 4 5 6 9 12 13 14`: “mean fluorescence intensity” 49.7 a.u.
For `2'F-ANA at 1 6 7 10 11 14`, “mean fluorescence intensity” read 44.1 a.u.
`2'F-ANA at 3 6 9 10 11 12 14 15` — result for “mean fluorescence intensity”: 321 a.u.
For `2'F-ANA at 2 7 8 9 13 14 15`, “mean fluorescence intensity” read 152 a.u.

Block 2
Target: RNA binding protein fox-1 homolog 2, RRM domain, GST-SBP tag (RBFOX2, Homo sapiens, UniProt O43251-10, residues 100-194)
Method: RNA Bind-n-Seq
Molecule type: RNA
Medium: in vitro
Tested at: 365 nM
Notes: natural RNA segment, single round, ends assumed
Baseline: no-protein control
Direction: higher = stronger binding
All sequences stand within: GGGAGUUCUACAGUCCGACGAUC … UGGAAUUCUCGGGUGCCAA
Residues (chain): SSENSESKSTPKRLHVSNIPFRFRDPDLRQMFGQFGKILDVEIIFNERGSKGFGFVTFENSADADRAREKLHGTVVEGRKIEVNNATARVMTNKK
`CAGUCCCUGAACUGAGCUGUUUACAGGACUGGGGAGGCUCCACCCAGAAGGCUUUCAUUUGUACUCUGCUGGGAGUGACUGGGAAAAACUCCUUCCCUGCUGCUGAGUGG` — result for “RBNS enrichment (R)”: 0.4.
`CCGUGUGAGCAGACGCUCAGAACAGAGCCCUUGGCCCUUCGAGUUCUUUCUUACGAGUUUGCCGUUCUCACUUCUGUGGGCUCCUAUACCUUGAGUGGGAUGAGUCUUAG` — result for “RBNS enrichment (R)”: 0.434.
`UCAUUUUUACCAGUCUGAGUGACAGGUCCCCUUCGCUCAUCAUUCAGAUGGCUUUCCAGAUGACCAGGACGAGUGGGAUAUUUUGCCCCCAACUUGGCUCGGCAUGUGAA` — result for “RBNS enrichment (R)”: 2.71.
`UCCUCCUAUUGUGUAUAGGUGUGUAUAUGUGUGUAAAUAUUUCACACAACAACAUCUGUACAAGCAUAUAUAUUUCAAAUCCAAGAUCUUGCCCUGUAACCCAUAUCUAC` — result for “RBNS enrichment (R)”: 0.567.
`AUAUGUGCCUGAUAUUUUGUGGAUACCUCCCCUGCACUGGCAAAACACUAUGCUUUUGGGUGUUAGACUGAAAUAUUUUAAGAGUAUUUAACCUUUCCAGUAUUCUGUUU` — result for “RBNS enrichment (R)”: 1.94.
`UCUGGCUUUGAGUUUGCUUGUGGAAUUUCCUGGGCAGUUGUGUUAAAUCCGCCAGGUCACGUGCAGACAAAGCUGUGGCUGCGAGAGUUGGCUGGCCUCUUGGACCAGAA`: “RBNS enrichment (R)” 0.392.
`CCAUGUCCAAAUAAUGAGCGUAUUUUCAUGUGGUCUUCACUGCAUUUGGUUUUGUUUCUGAUUUCAUGUUCCUUUGAGGUACAGUCAGAUGAAAAUGCUGAGUUCUGAGA` — result for “RBNS enrichment (R)”: 0.626.
For `CUUGUCUUACAAUGUUACCUUUAAGUGAAUCACAUAAUUGUCUUUGGAACUUGGUCUCCCAACACUUAUUGUGAUUGCAAAGUGUUUACCAGAUAUUUGAUGAGGUGCUA`, “RBNS enrichment (R)” read 0.32.
Under “RBNS enrichment (R)”, `UCUUGUGUGCCUUCUGAGCUGUUUCUUCAGCCUAGAAACUCCCUGCUCAAAGGCACCUUUGCUUUUGUGAACUCGUUCACCCUAUCCUGUCUCCCCCAGGAUUGCCCCCC` is recorded as 0.435.
For `AACCAAGCCCACCCUUCCACAUUGGGCCUGGCUGCUCUAUUCUGUACCAAGUACUGGAGAAAAAGCAUCAAGUUCUUAGCCCUUGUAGCUUCUACCCUAGUUUCCCAUCC`, “RBNS enrichment (R)” read 0.279.
`UAAUUGUAGAGAUUUGAACCCGAUCAAAGAAAUUUUGAGUUCUCUCAAAUACCAUAAAAGUGUUUGCUACAAUAAAUAAAAUUCUUGUGACUUUACUACCAAGUCAUCUC`: “RBNS enrichment (R)” 0.471.
For `GAAUUAGGAGAUGUUUUGGUAAUUAUUUCAUAUAUUGUUGUUUAUUGAGAAAAGGUUGUAGGAUGUGUCACAAGAGACUUUUGACAAUUCUGAGGAACCUUGUGUCCAGU`, “RBNS enrichment (R)” read 0.463.

Block 3
Target: CCNA2, cyclin fold, Cln2 fusion (human)
Method: yeast growth competition, sequencing
Medium: yeast
Notes: strong parent motif
Baseline: not given
Direction: higher = stronger binding
Parent: PKN2 docking peptide (human); VSAVQKLDFSDTM; partner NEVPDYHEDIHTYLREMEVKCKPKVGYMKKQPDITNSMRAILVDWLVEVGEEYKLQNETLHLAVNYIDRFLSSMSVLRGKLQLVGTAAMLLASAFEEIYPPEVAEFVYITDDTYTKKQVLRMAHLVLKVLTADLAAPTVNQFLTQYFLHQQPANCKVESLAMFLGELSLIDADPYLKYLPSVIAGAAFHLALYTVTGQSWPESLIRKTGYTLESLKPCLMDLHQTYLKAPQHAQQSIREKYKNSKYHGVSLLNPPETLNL
`VSAVQKLDFSDTQ [M13Q]` — result for “normalised enrichment score”: 1.99.
`VSAVQKLHFSDTM [D8H]`: “normalised enrichment score” 0.946.
For `VSGVQKLDFSDTM [A3G]`, “normalised enrichment score” read 0.0922.
`VSAVQMLDFSDTM [K6M]`: “normalised enrichment score” 0.874.
`NSAVQKLDFSDTM [V1N]` — result for “normalised enrichment score”: 2.04.
Under “normalised enrichment score”, `VSAVQKLDFCDTM [S10C]` is recorded as 1.58.
Under “normalised enrichment score”, `VSAVQKLDFSYTM [D11Y]` is recorded as 1.37.
For `VSAVQKRDFSDTM [L7R]`, “normalised enrichment score” read 0.021.
For `VSAVQKQDFSDTM [L7Q]`, “normalised enrichment score” read -0.435.
For `VSAVQKLDFSDAM [T12A]`, “normalised enrichment score” read 2.26.
Under “normalised enrichment score”, `VSAVQKLDYSDTM [F9Y]` is recorded as 0.867.
`VSAVQKLDFSDTC [M13C]` — result for “normalised enrichment score”: 2.06.
`VSAVQKLDFEDTM [S10E]` — result for “normalised enrichment score”: 2.13.
For `VSAVQKLPFSDTM [D8P]`, “normalised enrichment score” read 0.666.
Under “normalised enrichment score”, `ASAVQKLDFSDTM [V1A]` is recorded as 1.57.
`WSAVQKLDFSDTM [V1W]`: “normalised enrichment score” 2.05.

Block 4
Target: Interferon regulatory factor 5, full length, phosphomimetic (IRF5, Homo sapiens, UniProt Q13568-2, residues 1-514, S451D/S453D/S456D/S462D)
Method: protein-binding microarray
Molecule type: double-stranded DNA, one strand shown
Medium: in vitro
Tested at: 940 nM top
Notes: 60-bp whole probe
Added: salmon DNA 0.4 mg/ml
Baseline: random background probes
Direction: higher = stronger binding
All sequences stand within: GCCTAGCAC … GTCTTGATTCGCTTGACGCTGCTG
For `GACGATATCGGGTTGCGAGACGTGCTA`, “fitted relative affinity” read 0.263 z-score.
`AGGAGAGATTAAGTAACTTAGTGCTAG`: “fitted relative affinity” -0.401 z-score.
`GGCGGACTGCTTCTCCTGACGTGCTAG` — result for “fitted relative affinity”: -0.334 z-score.
`GGCGGTTTCGGTCTCGGGACGTGCTAG` — result for “fitted relative affinity”: 14.4 z-score.
For `TTAGGTCTCTTTATCCTTTAGTGCTAG`, “fitted relative affinity” read 1.13 z-score.
`GACGGACTGGGTTTCGGCACGTGCTAG` — result for “fitted relative affinity”: 2.81 z-score.
`TTAGATTTCAGTTTCGAATAGTGCTAG` — result for “fitted relative affinity”: 4.63 z-score.
`TCAAGAAAGAAAACGGGGAGGTGCTAG` — result for “fitted relative affinity”: 0.0704 z-score.
`TTAGGTTCCGGTGTCGGTTAGTGCTAG` — result for “fitted relative affinity”: 2.88 z-score.
Under “fitted relative affinity”, `TCACCTTTTGCTTTACTACTGTGCTAG` is recorded as 1.37 z-score.
`TTAGGTATCGGTATCGATTAGTGCTAG`: “fitted relative affinity” 10.9 z-score.
`TGGATACTTTGCTGAACATCGTGCTAG`: “fitted relative affinity” -0.151 z-score.
Under “fitted relative affinity”, `GACGGTATCGGTCTCGGGATGTGCTAG` is recorded as 7.84 z-score.
`TTAGGACTGGACTTTCGGTTTGTGCTA` — result for “fitted relative affinity”: 2.36 z-score.
Under “fitted relative affinity”, `TTATGACTGCTACTGCTTTAGTGCTAG` is recorded as -0.358 z-score.
For `TCACATTTTTTTTTTCTACTGTGCTAG`, “fitted relative affinity” read 2.43 z-score.

Block 5
Target: Histone acetyltransferase KAT6A, winged helix 1, GST fusion (KAT6A, Homo sapiens, UniProt Q92794, residues 1-85)
Method: protein binding microarray
Molecule type: double-stranded DNA, one strand shown
Medium: in vitro
Tested at: not given
Notes: 8-mer, flanks averaged, mean of 2 arrays, mostly near background
Baseline: not given
Direction: higher = stronger binding
Target sequence (chain): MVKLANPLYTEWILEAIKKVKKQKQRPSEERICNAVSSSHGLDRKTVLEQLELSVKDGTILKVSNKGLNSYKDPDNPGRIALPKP
The E-score of `CAGATCTC` is reported as -0.168.
For `CAGCTAGA`, the E-score was -0.212.
With `GAGAAAAC` the E-score was -0.021.
`GGCCGTTA` has an E-score of 0.25.
`ACTATGAC` has an E-score of -0.118.
For `CCTTAGAC`, the E-score was -0.132.
With `CCTGCGTC` the E-score was 0.021.
`ACGGGCGC` has an E-score of 0.416.
For `AAACTGAG`, the E-score was -0.0832.
`AGTCGGAT` gave an E-score of 0.0529.
`AGCATCGA` has an E-score of -0.242.
For `AGATGACG`, the E-score was 0.0273.
For `AAAAACCA`, the E-score was -0.0663.
For `AAGCGGCA`, the E-score was 0.364.
`GTCTCTTA` gave an E-score of -0.0377.
For `CAGGGCCC`, the E-score was 0.0405.
For `CACACGAG`, the E-score was -0.125.
`AGACTGAG` gave an E-score of -0.146.
`AGGTACTC` has an E-score of -0.0886.
For `CCCGCTTC`, the E-score was 0.19.
The E-score of `ATTGTCTG` is reported as -0.147.

Block 6
Target: PABPC1L2, full length, GST fusion (mouse, UniProt A0ABA7IW68)
Method: RNAcompete
Molecule type: RNA
Medium: in vitro
Tested at: 20 nM
Notes: 7-mer, probes averaged, single round
Baseline: mean of 7-mers
Direction: higher = stronger binding
Construct (chain): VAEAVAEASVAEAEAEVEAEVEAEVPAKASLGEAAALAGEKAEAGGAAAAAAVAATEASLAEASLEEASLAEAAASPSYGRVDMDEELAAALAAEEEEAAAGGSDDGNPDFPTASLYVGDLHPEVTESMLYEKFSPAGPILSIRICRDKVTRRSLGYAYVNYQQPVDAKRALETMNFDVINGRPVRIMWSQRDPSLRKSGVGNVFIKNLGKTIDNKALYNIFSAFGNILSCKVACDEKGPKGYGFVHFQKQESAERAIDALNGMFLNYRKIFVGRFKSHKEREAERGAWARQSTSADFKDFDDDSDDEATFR
The 7-mer Z-score of `UAAUUAA` is reported as 0.00617.
With `CAUGGGC` the 7-mer Z-score was 0.129.
`UCCAUUA` has a 7-mer Z-score of -0.315.
`UCACCUG` gave a 7-mer Z-score of -0.34.
The 7-mer Z-score of `GUAAGGA` is reported as 0.0424.
For `GCCCGCG`, the 7-mer Z-score was -0.237.
The 7-mer Z-score of `GACAACA` is reported as 0.448.
`UGUCUUC` gave a 7-mer Z-score of -0.316.
`UCGACCU` has a 7-mer Z-score of -0.122.
The 7-mer Z-score of `AAUCUAU` is reported as 0.104.
`UGAUACU` gave a 7-mer Z-score of -0.142.
The 7-mer Z-score of `UGGAUUA` is reported as -0.135.
With `CCACGAA` the 7-mer Z-score was -0.0518.
The 7-mer Z-score of `CUGAUAA` is reported as 0.363.
`AGACUAG` has a 7-mer Z-score of -0.128.
For `CCACAGC`, the 7-mer Z-score was -0.122.
The 7-mer Z-score of `UCCGCCG` is reported as -0.507.
For `GGGCAGC`, the 7-mer Z-score was 0.363.
With `UCCUUAG` the 7-mer Z-score was -0.307.
`CCCCAAC` has a 7-mer Z-score of -0.318.
